{"data": "Results gathered from unrelated publications", "note": "Compare with care: the assays were run in different laboratories.", "sequence of UniProt P42336 (whole entry, unmodified, looked up)": "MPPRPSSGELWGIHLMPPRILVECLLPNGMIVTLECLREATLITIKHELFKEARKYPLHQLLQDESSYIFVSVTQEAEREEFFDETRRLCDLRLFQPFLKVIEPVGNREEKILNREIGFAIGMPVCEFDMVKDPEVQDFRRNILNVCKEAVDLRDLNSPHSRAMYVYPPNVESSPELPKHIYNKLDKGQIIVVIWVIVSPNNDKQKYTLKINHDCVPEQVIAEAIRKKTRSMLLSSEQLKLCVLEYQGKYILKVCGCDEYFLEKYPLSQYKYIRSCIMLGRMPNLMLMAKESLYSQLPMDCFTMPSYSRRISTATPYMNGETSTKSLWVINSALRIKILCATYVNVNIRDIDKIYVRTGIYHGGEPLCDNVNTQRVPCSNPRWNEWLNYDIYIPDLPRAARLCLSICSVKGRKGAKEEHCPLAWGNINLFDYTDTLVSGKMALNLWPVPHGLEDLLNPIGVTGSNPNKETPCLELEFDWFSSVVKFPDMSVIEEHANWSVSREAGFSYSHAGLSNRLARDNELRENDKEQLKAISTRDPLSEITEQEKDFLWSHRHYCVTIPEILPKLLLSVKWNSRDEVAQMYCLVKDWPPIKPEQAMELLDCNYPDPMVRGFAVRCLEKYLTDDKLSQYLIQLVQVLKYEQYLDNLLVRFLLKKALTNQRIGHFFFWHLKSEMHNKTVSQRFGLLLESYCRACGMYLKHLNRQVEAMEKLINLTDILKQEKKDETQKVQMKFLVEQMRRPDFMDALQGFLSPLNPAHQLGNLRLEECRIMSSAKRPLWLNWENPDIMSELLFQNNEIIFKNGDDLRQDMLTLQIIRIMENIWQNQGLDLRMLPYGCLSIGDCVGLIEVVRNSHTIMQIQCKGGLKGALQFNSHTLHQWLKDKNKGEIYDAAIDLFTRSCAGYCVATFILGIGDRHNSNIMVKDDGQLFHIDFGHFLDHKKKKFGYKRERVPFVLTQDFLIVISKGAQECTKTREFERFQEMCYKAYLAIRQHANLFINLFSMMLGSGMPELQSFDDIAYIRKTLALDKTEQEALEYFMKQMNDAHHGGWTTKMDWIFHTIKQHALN", "sequence of UniProt Q8IW41 (whole entry, looked up)": "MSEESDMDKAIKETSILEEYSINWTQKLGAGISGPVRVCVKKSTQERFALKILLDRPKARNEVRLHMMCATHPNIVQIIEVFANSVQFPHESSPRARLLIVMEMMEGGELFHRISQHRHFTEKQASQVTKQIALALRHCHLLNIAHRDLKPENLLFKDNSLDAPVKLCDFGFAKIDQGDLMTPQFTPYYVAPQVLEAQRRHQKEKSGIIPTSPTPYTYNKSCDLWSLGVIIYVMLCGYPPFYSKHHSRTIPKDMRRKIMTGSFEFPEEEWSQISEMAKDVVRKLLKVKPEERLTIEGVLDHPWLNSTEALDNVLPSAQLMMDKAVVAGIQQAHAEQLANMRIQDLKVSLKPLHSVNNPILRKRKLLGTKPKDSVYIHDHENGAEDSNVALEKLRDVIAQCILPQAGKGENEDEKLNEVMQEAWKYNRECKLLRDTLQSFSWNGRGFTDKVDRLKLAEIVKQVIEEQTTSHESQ", "sequence of UniProt P37023 (whole entry, looked up)": "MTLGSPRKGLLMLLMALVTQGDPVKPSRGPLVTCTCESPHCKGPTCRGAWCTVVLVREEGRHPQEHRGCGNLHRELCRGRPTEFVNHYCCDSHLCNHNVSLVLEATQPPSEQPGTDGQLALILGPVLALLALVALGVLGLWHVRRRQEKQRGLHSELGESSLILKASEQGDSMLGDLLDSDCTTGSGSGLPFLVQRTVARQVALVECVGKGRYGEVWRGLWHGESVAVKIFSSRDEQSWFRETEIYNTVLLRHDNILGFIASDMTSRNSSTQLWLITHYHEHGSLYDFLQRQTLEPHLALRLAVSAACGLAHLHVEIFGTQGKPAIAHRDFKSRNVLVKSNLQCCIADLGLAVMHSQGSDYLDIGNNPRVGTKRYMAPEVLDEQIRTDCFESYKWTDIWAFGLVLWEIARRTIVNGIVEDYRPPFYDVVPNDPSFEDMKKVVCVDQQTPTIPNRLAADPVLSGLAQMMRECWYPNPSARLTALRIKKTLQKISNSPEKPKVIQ", "sequence of UniProt O33336 (whole entry, looked up)": "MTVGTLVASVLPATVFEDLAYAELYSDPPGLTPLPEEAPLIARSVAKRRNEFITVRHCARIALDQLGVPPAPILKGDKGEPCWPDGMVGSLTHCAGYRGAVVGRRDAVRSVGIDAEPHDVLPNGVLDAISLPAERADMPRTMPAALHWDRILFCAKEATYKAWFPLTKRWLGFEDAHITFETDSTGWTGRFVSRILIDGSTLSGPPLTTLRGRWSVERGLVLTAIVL"}
{"SMILES": "Cc1c(Cl)c(=O)oc2cc(OCCCC[Se]C#N)ccc12", "tested on": "SW1573", "assay": "cell growth or viability, SRB", "quantity": "GI50", "result": "23 µM"}
{"SMILES": "COC(=O)OCc1cc2[nH]c(=S)n(Cc3cncnc3)c(=O)c2cc1Cl", "tested on": "4'-phosphopantetheinyl transferase PptT (Mycobacterium tuberculosis, UniProt O33336)", "assay": "enzyme activity, inhibitor, FP", "quantity": "IC50", "result": "4.18 µM"}
{"SMILES": "COc1ccc(Nc2nn3c(-c4ccccc4)ccnc3c2C(=O)Nc2ccc(Cl)cc2)cc1", "tested on": "A549", "assay": "cell growth or viability, MTT", "setting": "12.5 µg/mL, 48 h, serum-free", "quantity": "viability", "result": "81.2%"}
{"SMILES": "COc1ncccc1-c1cnn2ccc(N3CCN(C(=O)OC(C)C)CC3)nc12", "tested on": "Activin receptor type-1-like (ACVRL1, Homo sapiens, UniProt P37023)", "assay": "binding, competition with immobilised ligand", "setting": "1 µM", "quantity": "remaining binding", "result": "100%"}
{"SMILES": "N#C[Se]Cc1cc(=O)oc2cc(O)ccc12", "tested on": "MIA PaCa-2", "assay": "cell growth or viability, SRB", "quantity": "GI50", "result": "19 µM"}
{"SMILES": "COc1ccc(Nc2nn3c(-c4ccccc4)ccnc3c2C(=O)Nc2ccccc2)cc1", "tested on": "A549", "assay": "cell growth or viability, MTT", "setting": "12.5 µg/mL, 48 h, serum-free", "quantity": "viability", "result": "88.6%"}
{"SMILES": "COc1cc(C(=O)c2nc(-c3ccc4[nH]ccc4c3)c[nH]2)cc(OC)c1OC", "tested on": "M14", "assay": "cell growth or viability, MTS", "setting": "72 h", "quantity": "IC50", "result": "0.0241 µM"}
{"SMILES": "COc1ccc(C(=O)Nc2ccc3c(c2)C=CCP(=O)(O)O3)cc1", "tested on": "MDA-MB-231", "assay": "cell growth or viability, MTT", "setting": "72 h", "quantity": "Emax", "result": "~10%"}
{"SMILES": "N#C[Se]CCCCOc1ccc2c(-c3ccccc3)cc(=O)oc2c1", "tested on": "MIA PaCa-2", "assay": "cell growth or viability, SRB", "quantity": "GI50", "result": "28 µM"}
{"SMILES": "Cc1nn(C)cc1-c1nc2c(N3CCN(Cc4ccc(Cl)cc4)CC3)c(Cl)cnc2[nH]1", "tested on": "Receptor-type tyrosine-protein kinase FLT3 (FLT3, Homo sapiens, UniProt P36888, D835H)", "assay": "binding, competition with immobilised ligand", "setting": "1 µM", "quantity": "remaining binding", "result": "0.75%"}
{"SMILES": "CN(C)c1ccc(C(=O)NCCCCCCC(=O)NO)cc1", "tested on": "OCI-Ly1", "assay": "cell growth or viability, ATP luminescence", "setting": "1 µM, 5 days", "quantity": "viability", "result": "30.3%"}
{"SMILES": "N.N.[Cl][Pt][Cl]", "tested on": "DOHH-2", "assay": "cell growth or viability, ATP luminescence", "setting": "72 h", "quantity": "IC50", "result": "0.57 µM"}
{"SMILES": "Nc1ncc(-c2nc(N3CCOCC3)nc(N3CCOCC3)n2)c(C(F)F)n1", "tested on": "Phosphatidylinositol 4,5-bisphosphate 3-kinase catalytic subunit alpha isoform (PIK3CA, Homo sapiens, UniProt P42336, H1047Y)", "assay": "binding, competition with immobilised ligand", "setting": "10 µM", "quantity": "remaining binding", "result": "0%"}
{"SMILES": "[2H]c1c([2H])c([C@]2([2H])CCCN2C(=O)C(C)(C)Oc2ccc3cn[nH]c3c2)c([2H])c([2H])c1C([2H])([2H])[2H]", "tested on": "MAP kinase-activated protein kinase 5 (MAPKAPK5, Homo sapiens, UniProt Q8IW41)", "assay": "binding, competition with immobilised ligand", "setting": "1 µM", "quantity": "remaining binding", "result": "75%"}
{"SMILES": "CCOC(=O)C1=C(N)N(c2ccc(C(=O)OCC)cc2)C(O)=C(C#N)C12C(=O)Nc1ccccc12 (stereo not drawn)", "tested on": "HepG2", "assay": "cell growth or viability, MTT", "setting": "6.25 µM, 24 h", "quantity": "viability", "result": "58.6%"}
{"note": "Repeated from above:"}
{"SMILES": "CN(C)c1ccc(C(=O)NCCCCCCC(=O)NO)cc1", "tested on": "OCI-Ly1", "assay": "cell growth or viability, ATP luminescence", "setting": "1 µM, 5 days", "quantity": "viability", "result": "30.3%"}
